Experimental data of several laboratories.
Parts stem from different laboratories: compare values within a part only.

Sample 1
Target: RNA binding protein fox-1 homolog 2, RRM domain, GST-SBP tag (RBFOX2, Homo sapiens, UniProt O43251-10, residues 100-194)
Method: RNA Bind-n-Seq
Form: RNA
Medium: in vitro
Concentration: 365 nM
Setting: natural RNA segment, single round, ends assumed
Relative to: no-protein control
Reading: higher = stronger binding
All sequences stand within: GGGAGUUCUACAGUCCGACGAUC … UGGAAUUCUCGGGUGCCAA
Construct (chain): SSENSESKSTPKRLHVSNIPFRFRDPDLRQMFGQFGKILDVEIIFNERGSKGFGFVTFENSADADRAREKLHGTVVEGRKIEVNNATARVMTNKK
Oligonucleotide | RBNS enrichment (R)
GGGUCUGAUAGAAAACGGGACUGCUCUGCACCAACAGCCUGUCACAGACAGGACAGCUGGACCACAGAGUUUAUUUUUGUAUUUCUUAUUGGGCCUGUACACUCCAGCUC | 0.183
CUGUGCUCCUGUGAACUGCAGUGCUCCUUGUGCCUGCUGUGAACUGCAGUGCUCCCCAGUGCAGUCCUGUAAUCUGCAGCAGGGAGCACGUCCUCUGCUCUCUGCUAUGU | 0.891
CCUCUCUCUCUCUGUCUCUCUCUGGUCUCUGUCUCUCUCUCUUUUUUUACCAGAACCCUUCUGCAAUGCCUCCUGCAUAGGUCCCAAGAUGUGUAGCGAUCCAUCCCUGG | 1.75
UAGCCUGUCAGUGAUCUAUUGGACCAAACCUUCUGCACACUCGGCCAGUUCCCUCUCCAAUGUCCGGUGCCAUCUUUCCUGACCUUUGUUUCUUUCUGUUCAGGAACCAU | 2.36
CACGCUCUCUCUUCUCUCCCAGGCUCUGGCUCAUGCACAUGCAACAGGUGCGUCUGUCUAUAUGUCUGGGUUCUUGUCUUUUGUGGUCUGUUUGUCUUUUCUACCUCUUU | 0.733
GUAGCUGCAGAGGGGGGAGGCCAAGGGUUUGGUCUAAGCUGUGCCCUGCCACCUGGCAGGAGGCCCACUCACUGCCCAAGUCAUGGCAACAGGCUGGAGCAGCCCAGGAG | 0.288
UUUGGGUUUCCUUGUGAAGUUGGAGGGAAGUUUAUAAUAGCCUAACACUACCCCACCCCCAACUAGGAGGAACCUCUGUUUUCAAGAGAGAUGCCUGUCCUGUGCUUGGA | 0.545
GAGACGGAACAUUCUCUAGAGACAACAGUCUGUGCUGCAGAUUGGUUGGAUCACAGAAUGUGUGUCUGGGGCAUUAUCUGAAACGUGGUGUCAUCUGAUGCAUUUGGACC | 0.237
UCAUUCUUUUUUUCUGAAAGAGGUAAUAAUUCUAGUUUUGAUAGACUCUGAGGAUUAUGUGAACAGGACAUUUUUCAUUUGUGAAUUUAAUGCUAUACUGUCAAGGUACU | 0.372
GAAAGAUUAAUCACACAAUAGAGGCAUAUGCGCUGUCAUUUUUCCUUUUUUUAAUUGUUAAAUUGAAUUUUAUACCAAUGUUUAAACUUAAAUUGGGUGUUAGCUUGAGG | 0.415
UGGGUGGCGGGCUAGAGACCCUUGCCUGUGUCCGGGACCCUGGCGCCGCUCUCCCCUCCUGUGGAUCCCUCCGCACUAACAGUGUUCUCAGUGGGCAGACGCCUGGGCAC | 2.15
ACCAGGCCCCAGAGCAGACUCAUCCGGGGUGGCAGGUCCCUAAAGCAAGGAAGGCCUCACACUGUCCAGCAUACUCCAGCCUGAAUUGCCUACUGGGUUCUCAGGGGGCA | 0.496

Sample 2
Target: Interferon regulatory factor 5, full length, phosphomimetic (IRF5, Homo sapiens, UniProt Q13568-2, residues 1-514, S451D/S453D/S456D/S462D)
Method: protein-binding microarray
Form: double-stranded DNA, one strand shown
Medium: in vitro
Concentration: 940 nM top
Setting: 60-bp whole probe
Added: salmon DNA 0.4 mg/ml
Relative to: random background probes
Reading: higher = stronger binding
All sequences stand within: GCCTAGCAC … GTCTTGATTCGCTTGACGCTGCTG
Oligonucleotide | fitted relative affinity [z-score]
GACGAACTTGGGTTTCGAGACGTGCTA | 1.98
GACGAACTGGGGTTTCGCGACGTGCTA | 0.455
GACTGTATCGGGTATCGGGACGTGCTA | 2.24
GACCGACTGCTTCTCCTGACGTGCTAG | 0.0451
TTAGGACTGGACTTTCGGTTCGTGCTA | 1.82
CTGCTGGCCTGTTGCTGGAAGTGCTAG | -0.522
GTAGATCTCAGTATCGATTAGTGCTAG | 4.69
TCACATTTCCAATTACCACTGTGCTAG | 0.994
TTAGATCGCAGTTTCGATTAGTGCTAG | 6.94
GACGATCTCAGTTTGGAGACGTGCTAG | 0.242
CTTAACCTGGGTCTCTGAAGGTGCTAG | -0.345
TTAGATTTCGGCACTGGATTAGTGCTA | 0.461
TCACCTCTCTCTATTCAACTGTGCTAG | 2.03
TCATTTTTTTCCCTGAAACTGTGCTAG | 0.856
TCAACTAGGGAATTTAGAACTGTGCTA | -0.191
TCACTCCTCTCTCTTTCACTGTGCTAG | 2.1
GACGGTTCCCTTTTCCTTACGTGCTAG | 0.883
GACGATTCCAATTTCGAGACGTGCTAG | 0.868

Sample 3
Target: Sal-like protein 4, full length isoform A (SALL4, Homo sapiens, UniProt Q9UJQ4, residues 1-1053)
UniProt Q9UJQ4, sequence (whole entry, looked up): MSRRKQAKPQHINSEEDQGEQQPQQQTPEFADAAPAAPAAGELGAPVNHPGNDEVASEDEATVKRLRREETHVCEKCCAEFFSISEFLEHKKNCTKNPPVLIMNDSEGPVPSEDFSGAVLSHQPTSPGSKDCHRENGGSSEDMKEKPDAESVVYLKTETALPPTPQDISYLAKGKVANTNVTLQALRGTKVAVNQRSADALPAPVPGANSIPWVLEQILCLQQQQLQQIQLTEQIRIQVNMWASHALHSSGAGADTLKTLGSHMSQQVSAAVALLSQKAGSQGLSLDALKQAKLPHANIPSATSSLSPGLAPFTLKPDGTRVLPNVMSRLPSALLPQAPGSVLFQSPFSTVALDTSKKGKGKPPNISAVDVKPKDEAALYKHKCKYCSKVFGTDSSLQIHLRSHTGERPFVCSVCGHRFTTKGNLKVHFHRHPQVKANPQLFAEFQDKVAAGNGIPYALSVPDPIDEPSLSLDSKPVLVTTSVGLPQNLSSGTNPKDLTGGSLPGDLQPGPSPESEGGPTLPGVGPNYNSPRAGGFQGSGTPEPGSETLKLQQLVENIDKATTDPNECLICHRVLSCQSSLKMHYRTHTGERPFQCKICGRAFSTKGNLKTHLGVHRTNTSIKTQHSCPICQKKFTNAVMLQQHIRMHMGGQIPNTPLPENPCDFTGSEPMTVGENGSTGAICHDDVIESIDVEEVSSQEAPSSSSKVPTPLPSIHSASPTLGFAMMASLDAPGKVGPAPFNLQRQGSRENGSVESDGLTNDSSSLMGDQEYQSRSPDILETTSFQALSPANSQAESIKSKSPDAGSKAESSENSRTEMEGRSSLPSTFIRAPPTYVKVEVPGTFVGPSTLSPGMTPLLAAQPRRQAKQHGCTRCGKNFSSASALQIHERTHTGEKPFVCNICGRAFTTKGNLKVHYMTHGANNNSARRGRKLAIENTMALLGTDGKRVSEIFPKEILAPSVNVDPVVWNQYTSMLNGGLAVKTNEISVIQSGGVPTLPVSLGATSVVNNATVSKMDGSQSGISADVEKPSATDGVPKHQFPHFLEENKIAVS
Method: universal PBM
Form: double-stranded DNA, one strand shown
Medium: in vitro
Concentration: 600 nM
Setting: 8-mer, flanks averaged, mean of replicates
Reading: higher = stronger binding
Oligonucleotide | E-score
ATGTGGAC | 0.0633
CTCAACAG | 0.083
ACAAGTTC | -0.031
ATCCAAGG | -0.123
AAACCCTA | 0.035
CACCTCTG | -0.213
CCAAGCCC | -0.281
AACTTGTG | 0.124
AAACGTCA | 0.103
GGCGTCAA | -0.15
AACGGGGC | -0.213
CTACGTCC | -0.108
CCGAGTTC | -0.101
TTCCAAAA | 0.287
AGGTCTAA | 0.0586
ATGGCAGC | -0.0212
CCGCCGGC | -0.216
TAGTAAAA | 0.317
ATCCAGTA | 0.0755
GGTACGTA | -0.0088
AATGGTCG | -0.034
ACACTTCT | -0.118
AGGCGCAG | -0.338
GGAAAAAC | 0.153

Sample 4
Target: Prothrombin, mature alpha-thrombin (F2, Homo sapiens, UniProt P00734)
Method: aptamer microarray, sandwich
Form: DNA with 2'F-ANA
Medium: in vitro
Concentration: 200 nM
Setting: whole 15-mer aptamer, many near background
Added: Cy3 exosite-II aptamer, 400 nM
Reading: higher = stronger binding
Oligonucleotide: GGTTGGTGTGGTTGG
Modification | mean fluorescence intensity [a.u.]
2'F-ANA at 1 5 6 8 10 12 13 15 | 49.5
2'F-ANA at 3 6 7 9 10 12 | 625
2'F-ANA at 1 2 3 5 6 7 8 10 11 13 | 49.2
2'F-ANA at 1 5 6 11 12 13 14 | 50
2'F-ANA at 3 6 7 10 11 12 13 14 15 | 452
2'F-ANA at 1 2 4 6 7 8 9 14 15 | 61.7
2'F-ANA at 7 9 10 13 14 | 131
2'F-ANA at 1 3 5 6 7 9 10 11 13 | 46.5
2'F-ANA at 1 2 3 5 6 8 11 14 | 51.3
2'F-ANA at 1 3 5 6 8 11 12 14 15 | 50.6
2'F-ANA at 2 4 6 8 10 11 | 70.8
2'F-ANA at 2 3 11 13 | 697
2'F-ANA at 5 6 10 14 15 | 115
2'F-ANA at 4 5 9 10 11 13 14 | 44.8
2'F-ANA at 1 2 8 9 12 13 14 15 | 73.1
2'F-ANA at 3 5 6 7 8 9 11 13 14 | 51.4
2'F-ANA at 1 2 3 4 5 7 8 11 13 14 | 48
2'F-ANA at 1 8 9 10 11 | 60.6
2'F-ANA at 1 4 6 11 14 15 | 50.4
2'F-ANA at 2 6 11 14 15 | 149
2'F-ANA at 1 2 3 6 8 9 10 13 | 62.3
2'F-ANA at 4 5 9 10 12 14 15 | 41.7
2'F-ANA at 2 4 5 11 13 14 15 | 65.1

Sample 5
Target: Histone acetyltransferase KAT6A, both winged helices, GST fusion (KAT6A, Homo sapiens, UniProt Q92794, residues 1-181)
Method: protein binding microarray
Form: double-stranded DNA, one strand shown
Medium: in vitro
Concentration: not given
Setting: 8-mer, flanks averaged, mean of 2 arrays, mostly near background
Relative to: not given
Reading: higher = stronger binding
Residues (chain): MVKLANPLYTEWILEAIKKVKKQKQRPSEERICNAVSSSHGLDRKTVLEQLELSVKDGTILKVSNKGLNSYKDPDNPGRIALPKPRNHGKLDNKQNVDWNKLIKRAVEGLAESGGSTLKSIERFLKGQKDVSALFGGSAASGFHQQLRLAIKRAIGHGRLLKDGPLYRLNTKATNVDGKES
Oligonucleotide | E-score
ATGCCTCC | -0.0317
GGAAATCA | 0.0114
GACCTGAA | -0.0318
ACACTCAC | -0.0667
CCGTCAAA | 0.248
CTGGTGTC | -0.184
TCTACAAA | -0.169
CTACATCC | 0.027
AGTCGACT | 0.131
ACTGTGCC | 0.0457
CCGGGATC | 0.255
CAAGTCCA | -0.188
CAATATTA | 0.0153
AACTACGA | -0.0487
CTCCCAGA | -0.154
CCAAATAA | -0.181
GCCCCTAC | -0.0971
GCGTGATA | 0.183
GGTCCGAA | 0.128
TAAACAAA | -0.0515
GTCTTTCA | -0.0121

Sample 6
Target: PABPC1L2, full length, GST fusion (mouse, UniProt A0ABA7IW68)
Method: RNAcompete
Form: RNA
Medium: in vitro
Concentration: 20 nM
Setting: 7-mer, probes averaged, single round
Relative to: mean of 7-mers
Reading: higher = stronger binding
Residues (chain): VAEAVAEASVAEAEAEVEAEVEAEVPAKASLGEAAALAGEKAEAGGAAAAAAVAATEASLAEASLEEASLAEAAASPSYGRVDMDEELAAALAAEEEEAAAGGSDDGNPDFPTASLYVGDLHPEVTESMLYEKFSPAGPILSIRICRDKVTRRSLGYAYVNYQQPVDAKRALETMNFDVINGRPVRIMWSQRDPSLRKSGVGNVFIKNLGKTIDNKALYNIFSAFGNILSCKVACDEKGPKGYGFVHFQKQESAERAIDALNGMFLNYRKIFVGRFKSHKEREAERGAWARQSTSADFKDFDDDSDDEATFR
Oligonucleotide | 7-mer Z-score
AUGGGUU | -0.155
AUGGGGG | 0.495
UCACCAG | -0.206
UCCAGAU | -0.177
UUCCCGA | -0.398
UCUCCCG | -0.358
GAUAACC | -0.197
UUUCUUG | -0.362
CCAGUCA | -0.289
AUAAAUC | 1.91
GAUCACU | -0.175
UAGGCUU | -0.162
CAUCAAC | -0.128
CAUCCUA | -0.278
CUGUUUU | -0.514
AUUGUAG | -0.184
GAUACGU | -0.251
AGGAAUC | -0.204
CUCCACA | -0.298
GACUCCA | -0.079
GGGAAAA | 3.2
UGCUUAG | -0.22
ACAGAGC | 0.182
AUGAAUG | -0.0826
UUAGUCG | -0.354

For quick reference, copied from above (sample 5):
Oligonucleotide | E-score
ATGCCTCC | -0.0317
GGAAATCA | 0.0114
GACCTGAA | -0.0318
ACACTCAC | -0.0667
CCGTCAAA | 0.248
CTGGTGTC | -0.184
TCTACAAA | -0.169
CTACATCC | 0.027
AGTCGACT | 0.131
ACTGTGCC | 0.0457
CCGGGATC | 0.255
CAAGTCCA | -0.188
CAATATTA | 0.0153
AACTACGA | -0.0487
CTCCCAGA | -0.154
